Measured values gathered from unrelated publications.
Lines come from different studies, so protocols differ.
Observed: metabolic stability

SMILES	test system	conditions	half-life [min]
CC(C)(C)n1ncc2c(=O)n(Cc3cccc(F)c3)c(NCc3ccc(C(F)(F)F)nc3)nc21	rat, liver microsomes		9
CCC(CC)CNC(=N)NC(=N)NCCCCCCNC(=N)NC(=N)NCC(CC)CC	rat, hepatocytes	1 µM	129
C=CC(=O)N1CCCC(n2c(=O)c3ncccc3n(Cc3ccc(Oc4ccccc4)cc3)c2=O)C1 (centres unmarked)	male Sprague-Dawley rat, hepatocytes	1 µM	4.7
CC(C)(C)n1ncc2c(=O)n(Cc3cccc(F)c3)c(NCc3ccc(F)cn3)nc21	rat, liver microsomes		327
CC(=O)Nc1ccnc(N2Cc3cnn(Cc4ccc(F)cc4)c3C2)n1	rat, liver microsomes		47
Cc1ncsc1-c1ccc(CNC(=O)[C@@H]2C[C@@H](O)CN2C(=O)[C@@H](NC(=O)COCCOCCOCCNC(=O)C[C@@H]2N=C(c3ccc(Cl)cc3)c3c(sc(C)c3C)-n3c(C)nnc32)C(C)(C)C)cc1	rat, liver microsomes	1 µM	5.8
CN(C)C(=O)c1cccc(N2Cc3cn(Cc4ccc(F)cc4F)nc3C2)c1	rat, liver microsomes		60
CNC(=O)C1CCCN(C(=O)C2CC3CCC2N3C(=O)[C@@H]2C[C@@H](O)CN2C(=O)NCc2cccc(Cl)c2F)C1 (mixture of isomers)	rat, liver microsomes		317
CN(C)C(=O)c1ccnc(N2Cc3cn(Cc4ccc(F)c(Cl)c4)nc3C2)n1	rat, liver microsomes		80
O=c1c(-c2cnn(-c3ccccc3)c2)c(C(F)(F)F)oc2c(O)c(O)ccc12	rat, liver microsomes		112
COc1ccc(CNc2nc3c(cnn3C(C)(C)C)c(=O)n2Cc2cccc(F)c2)cn1	rat, liver microsomes		5.7
CN(C)C(=O)c1ccnc(N2Cc3cn(Cc4cc(F)cc(F)c4)nc3C2)n1	rat, liver microsomes		907
CC(C)(C)n1ncc2c(=O)n(Cc3cccc(F)c3)c(NCc3ccccn3)nc21	rat, liver microsomes		5.3
C/C(N)=N/C(=N\S(=O)(=O)c1ccc(C(F)(F)F)cc1)N1C[C@H](c2ccccc2)C(c2ccc(Cl)cc2)=N1	rat, liver microsomes		> 120
